Measurements gathered from unrelated publications.
Each line is one published result; not all experiments were run side by side. ± marks the error that the study gave. No end group written: not given here.
CHRM1: Muscarinic acetylcholine receptor M1 (CHRM1, Homo sapiens, UniProt P11229)
Chain of UniProt P11229 (whole entry, looked up): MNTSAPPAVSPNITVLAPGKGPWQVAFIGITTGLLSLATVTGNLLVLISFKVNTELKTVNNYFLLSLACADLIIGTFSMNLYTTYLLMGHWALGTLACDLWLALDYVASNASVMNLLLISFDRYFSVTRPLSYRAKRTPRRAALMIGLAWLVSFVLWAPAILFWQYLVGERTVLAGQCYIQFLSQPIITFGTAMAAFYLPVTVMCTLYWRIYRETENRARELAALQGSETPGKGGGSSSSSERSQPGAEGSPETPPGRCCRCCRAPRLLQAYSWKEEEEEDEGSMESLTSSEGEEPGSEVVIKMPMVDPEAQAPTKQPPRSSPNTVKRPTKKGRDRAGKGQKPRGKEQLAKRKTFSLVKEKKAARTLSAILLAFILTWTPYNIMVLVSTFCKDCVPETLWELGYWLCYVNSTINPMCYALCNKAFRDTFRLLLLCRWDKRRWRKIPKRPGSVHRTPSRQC
ELANE: Neutrophil elastase (ELANE, Homo sapiens, UniProt P08246)
Chain of UniProt P08246 (whole entry, looked up): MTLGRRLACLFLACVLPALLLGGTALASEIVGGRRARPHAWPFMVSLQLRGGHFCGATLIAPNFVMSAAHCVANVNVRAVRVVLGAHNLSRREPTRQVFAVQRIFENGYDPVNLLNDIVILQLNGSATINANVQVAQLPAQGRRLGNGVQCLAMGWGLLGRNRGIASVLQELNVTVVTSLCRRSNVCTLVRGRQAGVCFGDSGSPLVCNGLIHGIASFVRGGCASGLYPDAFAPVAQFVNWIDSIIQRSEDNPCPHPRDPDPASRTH
CHRM4: Muscarinic acetylcholine receptor M4 (CHRM4, Homo sapiens, UniProt P08173)
Chain of UniProt P08173 (whole entry, looked up): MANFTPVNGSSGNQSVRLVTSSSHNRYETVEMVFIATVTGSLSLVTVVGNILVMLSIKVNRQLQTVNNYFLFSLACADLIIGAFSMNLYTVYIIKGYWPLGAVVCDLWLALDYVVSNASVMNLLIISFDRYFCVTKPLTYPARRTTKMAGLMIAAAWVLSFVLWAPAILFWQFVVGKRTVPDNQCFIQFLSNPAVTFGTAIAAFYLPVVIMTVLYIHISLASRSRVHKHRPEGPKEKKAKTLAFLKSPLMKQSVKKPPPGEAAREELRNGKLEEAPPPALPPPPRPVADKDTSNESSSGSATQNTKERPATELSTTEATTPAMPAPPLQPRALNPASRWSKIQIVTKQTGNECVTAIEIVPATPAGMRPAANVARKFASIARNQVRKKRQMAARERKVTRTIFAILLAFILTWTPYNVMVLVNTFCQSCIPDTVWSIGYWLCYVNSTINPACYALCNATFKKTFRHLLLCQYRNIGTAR
UGT1A1: UDP-glucuronosyltransferase 1A1 (UGT1A1, Homo sapiens, UniProt P22309)
Chain of UniProt P22309 (whole entry, looked up): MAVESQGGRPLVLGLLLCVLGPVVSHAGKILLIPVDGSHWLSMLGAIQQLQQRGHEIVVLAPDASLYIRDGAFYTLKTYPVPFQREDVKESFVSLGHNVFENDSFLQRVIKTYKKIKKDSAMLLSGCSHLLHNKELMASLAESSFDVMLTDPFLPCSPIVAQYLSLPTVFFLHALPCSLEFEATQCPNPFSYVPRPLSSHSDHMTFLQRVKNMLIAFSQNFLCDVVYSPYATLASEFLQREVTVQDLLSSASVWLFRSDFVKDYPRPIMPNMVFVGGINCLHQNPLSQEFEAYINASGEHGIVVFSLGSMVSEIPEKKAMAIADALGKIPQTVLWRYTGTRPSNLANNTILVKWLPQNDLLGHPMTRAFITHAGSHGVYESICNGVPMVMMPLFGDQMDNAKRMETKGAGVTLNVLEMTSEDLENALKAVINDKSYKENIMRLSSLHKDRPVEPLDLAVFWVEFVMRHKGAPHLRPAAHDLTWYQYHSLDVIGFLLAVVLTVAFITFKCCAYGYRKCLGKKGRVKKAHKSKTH
T1: RNA G-quadruplex, G-quadruplex, K+ folded (Homo sapiens); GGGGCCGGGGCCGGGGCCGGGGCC
B1: side-chain stapled; chain CRTKQCARKSTGG (also: sidechain bridge or staple (positions not given here))
Chain of UniProt Q8T6T2 (whole entry, looked up): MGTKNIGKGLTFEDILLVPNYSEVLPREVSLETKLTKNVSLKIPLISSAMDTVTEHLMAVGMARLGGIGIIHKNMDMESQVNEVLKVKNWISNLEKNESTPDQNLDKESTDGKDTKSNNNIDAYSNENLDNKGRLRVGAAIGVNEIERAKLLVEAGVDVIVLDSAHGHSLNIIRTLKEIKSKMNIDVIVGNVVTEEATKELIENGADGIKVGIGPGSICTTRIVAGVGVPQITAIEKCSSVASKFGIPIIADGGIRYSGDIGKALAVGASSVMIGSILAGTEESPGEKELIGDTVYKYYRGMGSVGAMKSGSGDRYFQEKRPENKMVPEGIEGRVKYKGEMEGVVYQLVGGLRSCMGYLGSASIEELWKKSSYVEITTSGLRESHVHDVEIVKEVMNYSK
Chain of UniProt P63138 (whole entry, unmodified, looked up): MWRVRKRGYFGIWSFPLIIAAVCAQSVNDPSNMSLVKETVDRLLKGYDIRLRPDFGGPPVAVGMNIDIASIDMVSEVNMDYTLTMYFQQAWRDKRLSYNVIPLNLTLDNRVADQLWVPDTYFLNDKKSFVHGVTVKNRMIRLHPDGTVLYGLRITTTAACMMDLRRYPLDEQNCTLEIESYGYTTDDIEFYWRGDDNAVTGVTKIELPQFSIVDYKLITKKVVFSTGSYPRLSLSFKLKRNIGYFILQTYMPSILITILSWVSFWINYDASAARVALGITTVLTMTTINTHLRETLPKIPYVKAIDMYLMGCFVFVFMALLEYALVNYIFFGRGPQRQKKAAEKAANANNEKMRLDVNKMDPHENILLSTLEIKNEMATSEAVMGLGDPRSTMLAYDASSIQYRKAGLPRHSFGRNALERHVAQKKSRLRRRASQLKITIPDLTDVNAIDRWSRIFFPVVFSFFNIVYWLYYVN
Chain of UniProt Q59490 (whole entry, looked up): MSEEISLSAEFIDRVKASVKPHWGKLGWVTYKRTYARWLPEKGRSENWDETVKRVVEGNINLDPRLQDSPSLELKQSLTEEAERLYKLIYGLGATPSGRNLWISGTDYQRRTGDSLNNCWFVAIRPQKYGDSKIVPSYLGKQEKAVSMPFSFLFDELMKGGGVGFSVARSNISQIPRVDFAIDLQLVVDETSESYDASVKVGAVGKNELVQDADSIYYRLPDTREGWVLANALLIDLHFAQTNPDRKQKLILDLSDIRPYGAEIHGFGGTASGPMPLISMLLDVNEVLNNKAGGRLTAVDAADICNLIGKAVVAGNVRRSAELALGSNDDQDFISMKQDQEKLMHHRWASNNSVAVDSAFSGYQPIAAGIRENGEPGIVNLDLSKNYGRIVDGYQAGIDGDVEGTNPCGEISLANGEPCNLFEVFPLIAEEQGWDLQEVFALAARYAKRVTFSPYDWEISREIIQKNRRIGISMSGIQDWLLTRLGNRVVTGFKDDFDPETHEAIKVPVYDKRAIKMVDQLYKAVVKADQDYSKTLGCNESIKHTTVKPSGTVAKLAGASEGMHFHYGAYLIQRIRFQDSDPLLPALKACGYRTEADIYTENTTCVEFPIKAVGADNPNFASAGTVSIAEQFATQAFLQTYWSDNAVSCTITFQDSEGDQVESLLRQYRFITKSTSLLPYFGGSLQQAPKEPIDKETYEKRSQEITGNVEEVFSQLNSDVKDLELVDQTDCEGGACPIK
Chain of UniProt P62813 (whole entry, unmodified, looked up): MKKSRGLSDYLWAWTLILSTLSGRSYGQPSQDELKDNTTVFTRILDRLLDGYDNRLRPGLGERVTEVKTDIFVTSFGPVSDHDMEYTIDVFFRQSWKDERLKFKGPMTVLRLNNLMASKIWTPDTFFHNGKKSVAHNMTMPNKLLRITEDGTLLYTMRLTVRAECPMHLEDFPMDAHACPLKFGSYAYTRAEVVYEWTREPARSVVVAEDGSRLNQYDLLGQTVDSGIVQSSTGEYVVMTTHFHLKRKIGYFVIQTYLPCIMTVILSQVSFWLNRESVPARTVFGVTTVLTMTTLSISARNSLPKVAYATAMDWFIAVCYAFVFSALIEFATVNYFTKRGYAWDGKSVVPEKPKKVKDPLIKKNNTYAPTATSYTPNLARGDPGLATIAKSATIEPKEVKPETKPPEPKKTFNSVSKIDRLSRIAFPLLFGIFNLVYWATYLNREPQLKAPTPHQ
Chain of UniProt P12369 (whole entry, unmodified, looked up): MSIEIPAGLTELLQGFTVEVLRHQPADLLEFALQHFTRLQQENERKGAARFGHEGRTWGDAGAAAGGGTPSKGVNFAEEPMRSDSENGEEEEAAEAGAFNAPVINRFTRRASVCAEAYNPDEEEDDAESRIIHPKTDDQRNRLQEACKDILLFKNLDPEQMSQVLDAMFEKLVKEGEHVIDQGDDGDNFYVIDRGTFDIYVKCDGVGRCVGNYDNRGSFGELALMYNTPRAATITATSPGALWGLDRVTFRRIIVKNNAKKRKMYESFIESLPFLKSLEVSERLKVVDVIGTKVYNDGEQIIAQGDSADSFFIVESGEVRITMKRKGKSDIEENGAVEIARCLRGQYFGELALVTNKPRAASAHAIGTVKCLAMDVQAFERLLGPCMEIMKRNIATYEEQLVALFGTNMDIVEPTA
Chain of UniProt P04406 (whole entry, looked up): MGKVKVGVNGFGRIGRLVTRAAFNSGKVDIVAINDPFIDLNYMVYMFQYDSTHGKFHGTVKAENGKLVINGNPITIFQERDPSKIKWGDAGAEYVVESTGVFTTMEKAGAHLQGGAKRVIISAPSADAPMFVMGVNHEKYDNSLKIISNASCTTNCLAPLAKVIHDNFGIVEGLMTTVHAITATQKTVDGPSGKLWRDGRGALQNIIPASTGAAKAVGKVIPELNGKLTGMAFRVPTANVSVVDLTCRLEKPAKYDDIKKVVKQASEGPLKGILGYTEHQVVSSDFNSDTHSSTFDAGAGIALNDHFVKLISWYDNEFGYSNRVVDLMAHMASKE
Chain of UniProt Q8WTS6 (whole entry, looked up): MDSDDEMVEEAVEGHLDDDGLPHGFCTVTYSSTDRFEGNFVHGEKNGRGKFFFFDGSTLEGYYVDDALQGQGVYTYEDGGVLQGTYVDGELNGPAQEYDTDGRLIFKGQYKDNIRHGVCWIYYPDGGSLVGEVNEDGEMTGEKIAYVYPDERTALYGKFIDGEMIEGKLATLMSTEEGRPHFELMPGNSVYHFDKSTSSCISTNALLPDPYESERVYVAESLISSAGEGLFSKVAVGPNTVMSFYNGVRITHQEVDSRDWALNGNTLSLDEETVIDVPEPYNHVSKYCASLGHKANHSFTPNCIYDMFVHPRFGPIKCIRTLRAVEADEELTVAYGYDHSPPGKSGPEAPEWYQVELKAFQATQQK

Molecule	target or system	test	test system	setting	how to read	measurement	value
CCCCn1cc(-c2ccc(COc3ccccc3-c3cc(=O)n(C4CCCCC4O)cn3)cc2)cn1 (centres unmarked)	CHRM1	positive allosteric modulator, IP1 accumulation	CHO-M1 cells	10 µM, 60 min, 37 °C, added: ACh	reference: ACh alone, higher = stronger potentiation	ΔpEC50 of ACh	2.01 ± 0.23 log units
NCC(F)(F)C(F)(F)C(F)(F)C(F)(F)F	ELANE	substrate	–	pH 7.5, added: 20 pM enzyme	–	kcat	0.89 s⁻¹
Cn1cnc2ncn(Cc3nc(CCc4ccc(Cl)cc4)no3)c(=O)c21	Transient receptor potential cation channel subfamily A member 1 (Trpa1, Rattus norvegicus, UniProt Q6RI86)	item: unbound plasma concentration	rat	AITC-induced nocifensive behaviour	–	in vivo over in vitro IC90	5.6 fold
B1	Histone-lysine N-methyltransferase SETD7 (SETD7, Homo sapiens, UniProt Q8WTS6)	peptide methylation, substrate, MALDI-TOF MS	–	10 µM, 3 h, pH 8.0, 37 °C, enzyme 500 nM, added: SAM 30 µM	–	methylation conversion	~65%
CIKVAVS	human polyclonal IgM rheumatoid factor	binding to mAb II-481	peptide	combined CDR peptides, serum STR	–	maximum inhibition	0%
SSQLRYLARSQRITIQLIAGS	Non-selective voltage-gated ion channel VDAC1 (VDAC1, Homo sapiens, UniProt P21796)	isothermal titration calorimetry	peptide	100 µM, pH 7.5, 20 °C	–	binding	no effect
COc1ccc(C)c2sc(C(=O)Nc3ccc(C)nc3)nc12	CHRM4	calcium mobilization, positive allosteric modulator	CHO expressing hM4 and Gqi5	concentration not given, added: acetylcholine EC20	–	activity	inactive
NCCOc1cc(C(=O)Nc2cc(OCCN)c3ccccc3n2)nc(C(=O)Nc2cc(OCCN)c3ccccc3n2)c1	T1, RNA G-quadruplex, G-quadruplex, K+ folded (Homo sapiens)	biolayer interferometry	–	pH 7.0, 30 °C, KCl 185 mM	–	Kd	70 nM
Nc1ncnc2c1nc(Br)n2[C@@H]1O[C@@H]2COP(=O)(O)O[C@H]2[C@H]1O	cAMP-dependent protein kinase type II-beta regulatory subunit, holoenzyme with catalytic subunit (Prkar2b, Rattus norvegicus, UniProt P12369, S112A)	PKA holoenzyme activation, activator, fluorescence anisotropy	–	–	reference: RIIβ over RIα, higher = RIIβ-selective	selectivity ratio	0.4
Cn1cc(-c2ccc(COc3ccccc3-c3cc(=O)n(C4CCCCC4O)cn3)cc2)cn1 (centres unmarked)	CHRM1	positive allosteric modulator, IP1 accumulation	CHO-M1 cells	1 µM, 60 min, 37 °C, added: ACh	reference: ACh alone, higher = stronger potentiation	ΔpEC50 of ACh	1.52 ± 0.14 log units
CC1(C)C=Cc2c(ccc3c2OC[C@@H](c2ccc(O)cc2O)C3)O1	Gabra1/Gabrb2, with gamma2 subunit (Rattus norvegicus, UniProt P62813+P63138, N289M)	ion current, agonist, two-electrode voltage clamp	Xenopus laevis oocytes expressing α1β2(N265M)γ2	30 µM, unit not given, added: no GABA	reference: GABA current	direct activation	0
CCNC(=O)c1ccc(COc2ccccc2-c2cc(=O)n(C3CCCCC3O)cn2)cc1 (centres unmarked)	CHRM1	positive allosteric modulator, IP1 accumulation	CHO-M1 cells	1 µM, 60 min, 37 °C, added: ACh	reference: ACh alone, higher = stronger potentiation	ΔpEC50 of ACh	1.62 ± 0.46 log units
COCn1c(-c2ccccc2)cc2ccccc21	RAW264.7	NO release, inhibitor, Griess	–	50 µM, 20 h, LPS-stimulated	–	inhibition	33.8%
glutathione	Glyceraldehyde-3-phosphate dehydrogenase (GAPDH, Homo sapiens, UniProt P04406)	enzyme activity, inhibitor, spectrophotometric	–	10 µM	reference: vehicle	remaining activity	98.5 ± 3.6%
CC(C)[C@H](NC(=O)[C@@H]1CCCN1C(=O)[C@H](CCCNC(=N)N)NC(=O)[C@H](CS)NC(=O)[C@H](Cc1c[nH]c2ccccc12)NC(=O)[C@H](CCCNC(=N)N)NC(=O)[C@@H](Cc1ccccc1)NC(=O)[C@H](Cc1c[nH]cn1)NC(=O)[C@H](CCC(=O)O)NC(=O)[C@H](CS)NC(=O)[C@H](CS)NC(=O)[C@H](CCCCN)NC(=O)[C@@H]1CC(=O)N[C@@H](CCCNC(=N)N)C(=O)N[C@@H](C)C(=O)N[C@@H](CC(=O)O)C(=O)N[C@H](Cc2ccc(O)cc2)C(=O)N1)C(N)=O [technetium-99m labelled]	–	–	C57 mice, spleen	intravenous, 0.037 MBq, 0.5 h	–	tissue uptake	1.54 ± 0.41 %ID/g
Nc1ccn([C@@H]2O[C@H](COP(=O)(O)OP(=O)(O)OP(=O)(O)O)[C@@H](O)C2(F)F)c(=O)n1	Adenosylcobalamin-dependent ribonucleoside-triphosphate reductase (rtpR, Lactobacillus leichmannii, UniProt Q59490)	mechanism-based inactivator	–	1 eq, under 2 min, pH 7.5, 37 °C, added: AdoCbl and dATP	–	inactivation	100%
CC(C)n1cc(-c2ccc(COc3ccccc3-c3cc(=O)n(C4CCCCC4O)cn3)cc2)cn1 (centres unmarked)	CHRM1	allosteric agonist, IP1 accumulation	CHO-M1 cells	10 µM, unit not given	reference: maximum ACh response	change in baseline activity	81 ± 2.7
COc1ccc2nc(NC(=O)c3ccncc3)sc2n1	CHRM4	calcium mobilization, positive allosteric modulator	CHO expressing hM4 and Gqi5	concentration not given, added: acetylcholine EC20	–	activity	inactive

Molecule	target or system	test	test system	setting	how to read	measurement	value
O=c1cc(-c2ccccc2OCc2ccc(Cl)nc2)ncn1C1CCCCC1O (centres unmarked)	CHRM1	positive allosteric modulator, IP1 accumulation	CHO-M1 cells	10 µM, 60 min, 37 °C, added: ACh	reference: ACh alone, higher = stronger potentiation	ΔpEC50 of ACh	1.04 ± 0.12 log units
NCC(F)(F)C(F)(F)C(F)(F)C(F)(F)C(F)(F)C(F)(F)F	ELANE	substrate	–	pH 7.5, added: 20 pM enzyme	–	kcat	2.37 s⁻¹
COc1ccc(C)c2sc(NC(=O)CC(C)(C)C)nc12	CHRM4	calcium mobilization, positive allosteric modulator	CHO expressing hM4 and Gqi5	concentration not given, added: acetylcholine EC20	–	activity	inactive
CSc1nc2c([nH]1)c(=O)n(C)c(=O)n2C	Progesterone receptor (PGR, Homo sapiens, UniProt P06401)	reporter gene, antagonist, MMTV-luciferase	T47D/A1-2	10 µM, 24 h, added: 5 nM progesterone	reference: maximal activity	remaining activity	9%
CCCOc1ccc(C(=O)Nc2ccc(Cl)cn2)cc1	Metabotropic glutamate receptor 5 (Grm5, Rattus norvegicus, UniProt P31424)	calcium mobilization, positive allosteric modulator	HEK293	concentration not given, added: EC20 glutamate	reference: maximal glutamate response	potentiation	106%
CCCCCCCCCCCCCCCCN(C)C	Oncorhynchus mykiss	liver S9 substrate depletion	rainbow trout liver S9	tested individually	–	intrinsic clearance in vitro	0.691 mL/h/mg S9 protein
CCCCCc1ccc(-c2cc3ccccc3[nH]2)cc1	RAW264.7	sulforhodamine B	–	50 µM, 20 h	reference: vehicle	viability	132 ± 12.6%
CC1=CC(=O)CC(C)(C)C1=O	Uncharacterized protein PH0856 (Pyrococcus horikoshii, UniProt O58586)	–	–	24 h, pH 7, 30 °C, aerobic, added: 10 mM substrate, 15 mM NAD(P)H	–	conversion	7 to 29%
O=C(O)[C@H]1O[C@@H](O[C@H]2c3cc4ccc5cccc6c7ccccc7c(c3C=C[C@@H]2O)c4c56)[C@H](O)[C@@H](O)[C@@H]1O (relative stereo)	UGT1A1	glucuronidation, substrate	UGT-expressing HEK293 homogenate	normalized to UGT expression	–	kcat	0.00733 ± 0.000833 s⁻¹
OCCN(CCO)c1nc(N2CCCCC2)c2nc(N(CCO)CCO)nc(N3CCCCC3)c2n1	UGT1A1	enzyme activity, inhibitor	–	20 µM	–	remaining activity	16.9%
COC(=O)c1scc(C)c1NC(=O)C(C)N1CCOCC1 (centres unmarked)	Sodium channel protein type 10 subunit alpha (SCN10A, Homo sapiens, UniProt Q9Y5Y9)	cell membrane chromatography	–	–	higher = stronger binding	capacity factor k′	11
Cn1ncc2cc(COc3ccccc3-c3cc(=O)n(C4CCCCC4O)cn3)ccc21 (centres unmarked)	CHRM1	positive allosteric modulator, IP1 accumulation	CHO-M1 cells	1 µM, 60 min, 37 °C, added: ACh	reference: ACh alone, higher = stronger potentiation	ΔpEC50 of ACh	1.24 ± 0.23 log units
NC(=O)c1ccc[n+]([C@@H]2O[C@H](COP(=O)([O-])OP(=O)(O)OC[C@H]3O[C@@H](n4cnc5c(N)ncnc54)[C@H](O)[C@@H]3O)[C@@H](O)[C@H]2O)c1	Inosine-5'-monophosphate dehydrogenase (Cryptosporidium parvum, UniProt Q8T6T2)	uncompetitive substrate inhibition	–	pH 8.0, 25 °C, dinucleotide intercept constant	–	Kii	4.9 mM
NC(=O)c1ccc(COc2ccccc2-c2cc(=O)n(C3CCCCC3O)cn2)cc1 (centres unmarked)	CHRM1	positive allosteric modulator, IP1 accumulation	CHO-M1 cells	10 µM, 60 min, 37 °C, added: ACh	reference: ACh alone, higher = stronger potentiation	ΔpEC50 of ACh	2.77 ± 0.49 log units
Clc1cccc(Nc2nnc(-c3ccccc3)c3ccccc23)c1	Dual specificity calcium/calmodulin-dependent 3',5'-cyclic nucleotide phosphodiesterase 1A (PDE1A, Homo sapiens, UniProt P54750)	cGMP hydrolysis, inhibitor, fluorescence polarization	recombinant enzyme	up to 100 µM, 30 min preincubation, 30 °C, added: TAMRA-cGMP 25 nM	–	IC50	inactive
CCN(CC)C(=O)c1ccc(COc2ccccc2-c2cc(=O)n(C3CCCCC3O)cn2)cc1 (centres unmarked)	CHRM1	allosteric agonist, IP1 accumulation	CHO-M1 cells	10 µM, unit not given	reference: maximum ACh response	change in baseline activity	27.9 ± 3.1
cardiac troponin I R141Q	F1FO-ATP synthase (rat heart)	ELISA	–	concentration not given	–	binding	no binding
